Measurements gathered from unrelated publications.
Compare with care: the assays were run in different laboratories. ± gives the spread as reported.
NUDT15: Nucleotide triphosphate diphosphatase NUDT15 (NUDT15, Homo sapiens, UniProt Q9NV35)
Scavenger receptor class B member 1: Scavenger receptor class B member 1 (Mus musculus, UniProt Q61009)
SEC14: SEC14 (Saccharomyces cerevisiae, UniProt P24280)

Sequences of proteins named here, by UniProt entry; tags and fusion partners are left off. Residues count along the entry.
UniProt Q9NV35, whole entry: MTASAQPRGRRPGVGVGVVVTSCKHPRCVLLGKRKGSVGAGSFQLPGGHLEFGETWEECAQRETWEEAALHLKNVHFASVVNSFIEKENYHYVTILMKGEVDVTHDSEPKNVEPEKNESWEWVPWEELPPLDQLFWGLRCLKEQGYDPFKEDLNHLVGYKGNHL
UniProt Q61009, whole entry: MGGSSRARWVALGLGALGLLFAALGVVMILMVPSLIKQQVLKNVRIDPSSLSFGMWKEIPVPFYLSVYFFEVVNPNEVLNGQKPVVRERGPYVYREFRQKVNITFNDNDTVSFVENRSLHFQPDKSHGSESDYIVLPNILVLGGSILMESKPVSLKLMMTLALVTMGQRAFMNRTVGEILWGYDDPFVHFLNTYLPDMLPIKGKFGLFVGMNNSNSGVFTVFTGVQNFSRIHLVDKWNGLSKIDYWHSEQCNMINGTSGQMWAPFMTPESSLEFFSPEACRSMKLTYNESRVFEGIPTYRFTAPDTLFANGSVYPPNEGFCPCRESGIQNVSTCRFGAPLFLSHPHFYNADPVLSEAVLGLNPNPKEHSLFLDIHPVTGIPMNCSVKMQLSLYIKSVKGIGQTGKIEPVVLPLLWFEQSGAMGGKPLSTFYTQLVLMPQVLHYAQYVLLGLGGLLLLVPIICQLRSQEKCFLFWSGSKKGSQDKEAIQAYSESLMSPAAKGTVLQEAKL
UniProt P24280, whole entry: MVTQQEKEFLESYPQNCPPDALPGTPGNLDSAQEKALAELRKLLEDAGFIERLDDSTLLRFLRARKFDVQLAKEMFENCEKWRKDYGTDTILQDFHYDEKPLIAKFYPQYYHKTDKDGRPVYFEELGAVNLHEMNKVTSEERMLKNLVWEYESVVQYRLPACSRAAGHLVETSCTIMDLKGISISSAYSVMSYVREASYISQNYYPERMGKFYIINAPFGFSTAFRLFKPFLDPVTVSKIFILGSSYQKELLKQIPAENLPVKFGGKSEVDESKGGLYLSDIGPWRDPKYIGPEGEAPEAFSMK
UniProt O94788, 27-518 limits assumed: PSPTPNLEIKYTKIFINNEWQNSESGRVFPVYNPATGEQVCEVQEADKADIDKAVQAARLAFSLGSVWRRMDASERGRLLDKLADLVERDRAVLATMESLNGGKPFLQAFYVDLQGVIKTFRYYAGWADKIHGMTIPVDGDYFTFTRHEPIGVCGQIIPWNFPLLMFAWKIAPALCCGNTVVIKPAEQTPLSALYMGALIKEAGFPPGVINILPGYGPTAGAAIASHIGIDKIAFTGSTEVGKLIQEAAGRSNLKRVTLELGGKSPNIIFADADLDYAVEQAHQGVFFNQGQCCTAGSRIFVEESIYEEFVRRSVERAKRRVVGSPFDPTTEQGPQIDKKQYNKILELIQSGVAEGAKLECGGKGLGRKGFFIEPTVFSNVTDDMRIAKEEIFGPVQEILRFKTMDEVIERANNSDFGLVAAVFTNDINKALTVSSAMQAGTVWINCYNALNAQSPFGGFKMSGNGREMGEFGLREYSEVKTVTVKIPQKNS
UniProt P08183, whole entry: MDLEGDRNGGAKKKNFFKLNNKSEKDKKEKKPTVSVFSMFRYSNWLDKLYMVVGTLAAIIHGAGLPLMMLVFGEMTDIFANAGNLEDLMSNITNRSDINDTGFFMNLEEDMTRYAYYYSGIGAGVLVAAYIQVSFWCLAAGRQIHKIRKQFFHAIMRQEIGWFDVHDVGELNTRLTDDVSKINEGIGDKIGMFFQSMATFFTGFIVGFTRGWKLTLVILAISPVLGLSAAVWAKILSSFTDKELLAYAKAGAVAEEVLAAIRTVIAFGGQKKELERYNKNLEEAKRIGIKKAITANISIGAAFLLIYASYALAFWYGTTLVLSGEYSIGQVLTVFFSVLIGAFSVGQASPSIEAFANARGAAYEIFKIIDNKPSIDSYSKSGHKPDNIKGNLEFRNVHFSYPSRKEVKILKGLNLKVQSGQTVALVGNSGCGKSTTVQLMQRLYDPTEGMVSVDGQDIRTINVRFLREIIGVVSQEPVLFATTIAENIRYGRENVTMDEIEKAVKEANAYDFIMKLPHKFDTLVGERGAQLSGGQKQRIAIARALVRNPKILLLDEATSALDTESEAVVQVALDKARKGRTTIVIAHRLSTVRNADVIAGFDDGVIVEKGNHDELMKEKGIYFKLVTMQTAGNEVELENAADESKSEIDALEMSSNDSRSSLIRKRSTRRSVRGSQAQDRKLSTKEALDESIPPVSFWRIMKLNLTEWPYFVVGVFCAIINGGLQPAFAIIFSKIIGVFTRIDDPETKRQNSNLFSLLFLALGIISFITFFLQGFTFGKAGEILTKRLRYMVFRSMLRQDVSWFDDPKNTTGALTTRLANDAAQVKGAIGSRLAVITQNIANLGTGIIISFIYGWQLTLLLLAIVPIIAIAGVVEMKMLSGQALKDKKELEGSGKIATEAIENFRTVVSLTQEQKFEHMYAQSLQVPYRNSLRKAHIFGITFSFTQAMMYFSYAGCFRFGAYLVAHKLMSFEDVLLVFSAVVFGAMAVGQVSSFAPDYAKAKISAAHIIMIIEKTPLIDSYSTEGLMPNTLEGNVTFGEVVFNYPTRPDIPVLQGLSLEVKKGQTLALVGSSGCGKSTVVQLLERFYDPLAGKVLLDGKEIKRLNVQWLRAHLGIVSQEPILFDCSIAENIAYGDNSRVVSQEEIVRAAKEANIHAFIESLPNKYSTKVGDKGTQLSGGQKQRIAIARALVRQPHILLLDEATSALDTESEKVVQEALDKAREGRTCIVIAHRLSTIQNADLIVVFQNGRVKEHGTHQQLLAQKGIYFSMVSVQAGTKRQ
UniProt P46098, whole entry, looked up: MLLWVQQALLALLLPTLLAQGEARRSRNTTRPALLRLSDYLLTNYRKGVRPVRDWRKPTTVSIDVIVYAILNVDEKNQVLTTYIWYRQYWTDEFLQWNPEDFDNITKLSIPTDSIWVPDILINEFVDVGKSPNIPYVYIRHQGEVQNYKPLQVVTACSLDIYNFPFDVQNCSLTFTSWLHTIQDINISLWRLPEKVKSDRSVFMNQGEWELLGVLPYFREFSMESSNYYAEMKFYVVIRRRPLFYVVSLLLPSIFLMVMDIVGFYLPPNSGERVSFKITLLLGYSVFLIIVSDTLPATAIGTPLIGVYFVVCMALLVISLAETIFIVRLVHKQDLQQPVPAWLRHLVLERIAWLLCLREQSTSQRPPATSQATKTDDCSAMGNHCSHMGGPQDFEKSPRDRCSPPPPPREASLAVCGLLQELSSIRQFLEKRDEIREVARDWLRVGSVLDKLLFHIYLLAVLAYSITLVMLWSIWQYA
UniProt Q14790, 214-479 D374A/D384A/C409S/C433S limits assumed: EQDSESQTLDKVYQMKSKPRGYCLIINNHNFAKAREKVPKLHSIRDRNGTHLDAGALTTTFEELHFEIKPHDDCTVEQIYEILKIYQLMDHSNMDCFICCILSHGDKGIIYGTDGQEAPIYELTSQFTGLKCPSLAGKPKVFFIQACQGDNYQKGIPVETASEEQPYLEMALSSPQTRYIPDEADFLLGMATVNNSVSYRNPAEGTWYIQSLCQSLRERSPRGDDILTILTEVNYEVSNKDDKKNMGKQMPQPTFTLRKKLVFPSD
UniProt Q6ZMT4, 92-488 limits assumed: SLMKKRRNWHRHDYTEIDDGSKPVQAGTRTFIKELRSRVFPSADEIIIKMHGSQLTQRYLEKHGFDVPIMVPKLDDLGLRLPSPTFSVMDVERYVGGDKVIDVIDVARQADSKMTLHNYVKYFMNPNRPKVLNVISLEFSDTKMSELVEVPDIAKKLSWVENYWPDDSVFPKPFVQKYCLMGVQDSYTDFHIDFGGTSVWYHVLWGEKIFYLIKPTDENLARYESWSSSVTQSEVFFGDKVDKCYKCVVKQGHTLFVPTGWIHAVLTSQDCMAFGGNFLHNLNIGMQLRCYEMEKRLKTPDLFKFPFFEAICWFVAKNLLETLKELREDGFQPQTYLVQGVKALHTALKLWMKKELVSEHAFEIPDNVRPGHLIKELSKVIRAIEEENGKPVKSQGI
UniProt P26842, whole entry, looked up: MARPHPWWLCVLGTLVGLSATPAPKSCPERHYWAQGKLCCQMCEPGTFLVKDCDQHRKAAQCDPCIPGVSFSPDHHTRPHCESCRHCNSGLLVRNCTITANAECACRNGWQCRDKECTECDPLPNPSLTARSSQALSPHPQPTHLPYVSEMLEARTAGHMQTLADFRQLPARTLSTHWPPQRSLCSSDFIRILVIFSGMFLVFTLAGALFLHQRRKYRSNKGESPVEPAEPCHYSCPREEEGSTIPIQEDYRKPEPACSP
UniProt Q02936, whole entry, looked up: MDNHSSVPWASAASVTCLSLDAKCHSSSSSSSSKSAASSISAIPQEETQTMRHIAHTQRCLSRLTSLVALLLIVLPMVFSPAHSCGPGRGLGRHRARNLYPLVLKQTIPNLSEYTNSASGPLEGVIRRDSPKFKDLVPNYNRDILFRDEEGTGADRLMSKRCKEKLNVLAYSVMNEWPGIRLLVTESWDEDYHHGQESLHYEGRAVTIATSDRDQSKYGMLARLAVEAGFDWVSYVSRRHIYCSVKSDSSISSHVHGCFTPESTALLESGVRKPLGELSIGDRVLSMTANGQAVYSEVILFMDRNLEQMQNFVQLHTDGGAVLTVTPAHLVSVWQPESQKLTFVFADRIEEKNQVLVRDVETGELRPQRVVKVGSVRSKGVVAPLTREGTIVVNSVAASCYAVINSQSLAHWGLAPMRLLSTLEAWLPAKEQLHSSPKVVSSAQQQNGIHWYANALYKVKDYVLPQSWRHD
UniProt P26045, 646-901 limits assumed: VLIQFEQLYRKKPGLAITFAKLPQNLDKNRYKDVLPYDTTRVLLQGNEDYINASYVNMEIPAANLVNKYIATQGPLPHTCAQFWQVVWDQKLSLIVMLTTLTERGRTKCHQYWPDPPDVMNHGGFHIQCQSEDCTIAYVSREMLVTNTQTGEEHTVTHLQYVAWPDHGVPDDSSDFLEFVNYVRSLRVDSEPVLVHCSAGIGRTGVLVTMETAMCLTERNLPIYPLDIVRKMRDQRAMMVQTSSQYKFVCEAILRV
UniProt Q9Y6W6, 321-464 limits assumed: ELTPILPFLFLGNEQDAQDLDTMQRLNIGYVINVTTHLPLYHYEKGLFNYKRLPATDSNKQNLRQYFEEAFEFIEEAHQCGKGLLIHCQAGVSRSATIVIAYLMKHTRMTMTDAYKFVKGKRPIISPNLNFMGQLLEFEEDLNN

With CC1(CNC(=O)c2ccc(C#Cc3ccccc3)cc2)NC(=O)NC1=O (stereo not drawn) the pKa was 8.39.
For CCOc1ccsc1C(=O)N1CCN(c2ccc([N+](=O)[O-])c(N3CCCC3)c2)CC1, the Kd was 260 ± 40 nM (ALDH1A2 (Homo sapiens, UniProt O94788); binding, isothermal titration calorimetry; 30 °C, together with: NAD 1 mM).
For Cc1cc2c(-c3cncc(N)c3)cnc(N[C@@H]3CCNC[C@H]3OCC3CCS(=O)(=O)CC3)c2[nH]c1=O, the permeability was < 0.3 ×10⁻⁶ cm/s (PAMPA; artificial membrane; pH 7.4).
With CN(C)S(=O)(=O)c1ccc(NCCCCN2CCC(Nc3nc4ccccc4n3Cc3ccc(F)cc3)CC2)c2nonc12 the colocalization coefficient was 0.75 (HEK293 hERG-transfected; lysosome colocalization; 2.5 µM).
CCN(CC)C(=O)c1ccc(-c2c3ccc(=[N+](C)C)cc-3[se]c3cc(N(C)C)ccc23)s1 gave a Km of 0.68 ± 0.14 µM (ABCB1 (Homo sapiens, UniProt P08183); ATPase activity, substrate; half-maximal ATPase stimulation).
With N=C(N)Nc1ccc(C(=O)N2CCN(S(=O)(=O)c3ccc4[nH]c(=O)oc4c3)CC2)cc1 the IC50 was 1800 nM (NUDT15; enzyme activity, inhibitor, malachite green; together with: dGTP).
With O=C1c2cccc3[nH]nc(c23)CCN1[C@@H]1CN2CCC1CC2 (single isomer, unassigned) the Ki was 2.26 ± 0.48 nM (HTR3A (Homo sapiens, UniProt P46098); binding, [3H]granisetron SPA displacement; pH 10, together with: [3H]granisetron 10 nM).
For COCC(=O)N1CC(C)(C)c2cc(-c3csc(NC(=O)c4cc(OC)cc(OC)c4)n3)ccc21, the IC50 was 90 nM (Scavenger receptor class B member 1; DiI-HDL uptake, inhibitor; mouse cells; together with: DiI-HDL).
For O=C(c1ccc(N2CCOCC2)cc1)N1CCC[C@@H](N(C(=O)CCl)c2ccccc2)C1, the IC50 was 750 nM (Caspase-8 (CASP8, Homo sapiens, UniProt Q14790, C409S/C433S/D374A/D384A); probe labeling, competitive gel-based ABPP; HEK293T cell lysate; 1 h, together with: alkyne probe 10 µM).
O=C(c1ccc(Cl)c([N+](=O)[O-])c1)N1CCN(c2cccc(C(F)(F)F)c2)CC1 gave an IC50 of 386 ± 48 nM (SEC14; phosphatidylinositol transfer, inhibitor; Sec14 287 nM, together with: [3H]-phosphatidylinositol).
For COc1cc2c(NC3CCN(Cc4ccccc4)CC3)nc(NCCCN(C)C)nc2cc1OCCCCCN, the Ki was 2500 nM (Lysine-specific demethylase 7A, Jumonji domain (KDM7A, Homo sapiens, UniProt Q6ZMT4); demethylase activity, inhibitor, mass spectrometry; together with: H3K9me2 peptide).
With O=C(c1ccco1)N1CCN(c2cc(NCCO)c([N+](=O)[O-])c3nonc23)CC1 the Kd was 15100 nM (CD27 antigen (CD27, Homo sapiens, UniProt P26842); binding, microscale thermophoresis).
CCC(=O)N1CC(C)(C)c2cc(-c3csc(NC(=O)c4ccco4)n3)ccc21 gave an IC50 of 20 nM (Scavenger receptor class B member 1; DiI-HDL uptake, inhibitor; mouse cells; together with: DiI-HDL).
With Cc1ccc(N2CCN(C(=O)c3ccc(Cl)c([N+](=O)[O-])c3)CC2)cc1C the IC50 was 186 ± 25 nM (SEC14; phosphatidylinositol transfer, inhibitor; Sec14 287 nM, together with: [3H]-phosphatidylinositol).
O=C(c1ccc2[nH]ccc2c1)N1CCN(C(=O)c2ccc3[nH]c(=O)oc3c2)CC1 has an IC50 of > 100000 nM (NUDT15; enzyme activity, inhibitor, malachite green; together with: dGTP).
For CCc1nc(C)c(C(=O)N2CCCN(c3nc4ccccc4s3)CC2)o1, the AC50 was 5000 nM (hh, C-terminal autoprocessing domain (Drosophila melanogaster, UniProt Q02936); cholesterol-independent autoprocessing, activator, FRET reporter; no cholesterol, together with: C-H-Y 0.1 µM).
CC(=O)N[C@@H](Cc1c[nH]cn1)C(=O)N[C@@H](CC(=O)O)C(=O)NCC(=O)N[C@@H](CC(C)C)C(=O)N[C@@H](Cc1ccc(O)cc1)C(=O)N[C@@H](CCC(N)=O)C(=O)NCC(=O)N[C@@H](CC(C)C)C(=O)N[C@@H](CO)C(=O)N[C@H](C(=O)N[C@@H](C)C(=O)N[C@H](C(=O)N[C@@H](CCCCN)C(=O)N[C@@H](CC(=O)O)C(=O)N[C@H](C(=O)N[C@@H](Cc1cc(=O)oc2cc(OP(=O)(O)O)ccc12)C(=O)N[C@@H](CC(=O)O)C(=O)N[C@@H](C)C(=O)N[C@@H](CC(C)C)C(=O)N[C@@H](Cc1c[nH]cn1)C(N)=O)[C@@H](C)O)[C@@H](C)O)[C@@H](C)O gave a Km of 25.1 µM (PTPN3 (Homo sapiens, UniProt P26045); peptide hydrolysis, substrate; pH 6.0, 37 °C, TCR zeta-chain ITAM peptide).
Cc1ccc(C(=O)N2CCN(S(=O)(=O)c3ccc4[nH]c(=O)oc4c3)CC2)cc1 gave an IC50 of 146 nM (NUDT15; enzyme activity, inhibitor, malachite green; together with: dGTP).
With CC(=O)N[C@@H](Cc1c[nH]cn1)C(=O)N[C@H](C(=O)NCC(=O)N[C@@H](Cc1ccccc1)C(=O)N[C@@H](CC(C)C)C(=O)N[C@H](C(=O)N[C@@H](CCC(=O)O)C(=O)N[C@@H](Cc1cc(=O)oc2cc(OP(=O)(O)O)ccc12)C(=O)N[C@H](C(=O)N[C@@H](C)C(=O)N[C@H](C(=O)N[C@@H](CCCNC(=N)N)C(=O)N[C@@H](Cc1c[nH]c2ccccc12)C(N)=O)[C@@H](C)O)C(C)C)[C@@H](C)O)[C@@H](C)O the Km was 15.5 µM (Dual specificity protein phosphatase 10 (Homo sapiens, UniProt Q9Y6W6); peptide hydrolysis, substrate; pH 6.0, 37 °C, 50 nM enzyme, together with: ERK activation-loop peptide).
With O=C(c1cccc(Br)c1)N1CCN(S(=O)(=O)c2ccc3[nH]c(=O)oc3c2)CC1 the IC50 was 107 nM (NUDT15; enzyme activity, inhibitor, malachite green; together with: dGTP).
For Cc1cncc(-c2ccc(N[C@@H]3CCNC[C@H]3OCC3CCS(=O)(=O)CC3)c3[nH]c(=O)c(C)cc23)c1, the permeability was < 0.3 ×10⁻⁶ cm/s (PAMPA; artificial membrane; pH 7.4).

Repeated from above:
CC(=O)N[C@@H](Cc1c[nH]cn1)C(=O)N[C@@H](CC(=O)O)C(=O)NCC(=O)N[C@@H](CC(C)C)C(=O)N[C@@H](Cc1ccc(O)cc1)C(=O)N[C@@H](CCC(N)=O)C(=O)NCC(=O)N[C@@H](CC(C)C)C(=O)N[C@@H](CO)C(=O)N[C@H](C(=O)N[C@@H](C)C(=O)N[C@H](C(=O)N[C@@H](CCCCN)C(=O)N[C@@H](CC(=O)O)C(=O)N[C@H](C(=O)N[C@@H](Cc1cc(=O)oc2cc(OP(=O)(O)O)ccc12)C(=O)N[C@@H](CC(=O)O)C(=O)N[C@@H](C)C(=O)N[C@@H](CC(C)C)C(=O)N[C@@H](Cc1c[nH]cn1)C(N)=O)[C@@H](C)O)[C@@H](C)O)[C@@H](C)O gave a Km of 25.1 µM (PTPN3 (Homo sapiens, UniProt P26045); peptide hydrolysis, substrate; pH 6.0, 37 °C, TCR zeta-chain ITAM peptide).
